Literature values that unrelated publications cite.
Numbered parts are unrelated; values within a part may stem from several laboratories.

Series 1
Organism: Cryptosporidium parvum
Method: high-throughput screen
Concentration: concentration not given
Quantity: activity
COc1cccc2c1C(=O)c1c(O)c3c(c(O)c1C2=O)C[C@@](O)(C(=O)CO)C[C@@H]3O[C@H]1C[C@H](N)[C@H](O)[C@H](C)O1: inactive
Nc1ncnc2c1ncn2[C@@H]1O[C@H](CO)[C@@H](O)[C@@H]1O: inactive
O=[N+]([O-])c1cccc2cn[nH]c12: inactive

Further values, each from its own experiment
O=C1CCc2cc(Nc3cc(OC4CCOCC4)c([N+](=O)[O-])cc3Cl)ccc2N1 — IC50 (BCL6 (human); cellular activity): 0.72 µM
CC(C)CCC[C@@H](C)[C@H]1CC[C@H]2[C@@H]3CC=C4[C@@H](O)[C@@H](O)CC[C@]4(C)[C@H]3CC[C@]12C — plasma half-life (human): 17 days
CN(C)CC#Cc1ccc(OCCCc2sc(N3CCc4cccc(C(=O)Nc5nc6ccccc6s5)c4C3)nc2C(=O)O)c(F)c1 — IC50 (BCL2L1; biochemical): 0.00055 µM
C[C@]1(c2nc3c(C(N)=O)cccc3[nH]2)CCCN1 — unbound fraction (plasma): 0.48
CN([C@@H]1CCc2c(CC(=O)O)c3ccccc3n2C1)S(=O)(=O)c1ccc(F)cc1 — Ki (PTGDR2): 0.0025 µM
CO[C@@H](C)c1c(Nc2ccc([C@H](N(C)C(=O)C3CCS(=O)(=O)CC3)C(F)(F)F)cc2)cnc2cc(Cl)nn12 — IC50 (FLT3; enzyme activity, kinase panel): 3.5 µM

A few entries again (series 1):
O=[N+]([O-])c1cccc2cn[nH]c12: inactive
